Assay results pooled from the literature.
Every numbered part comes from another study and shows a few of its results, in no order.

Series 1 — cell line: HEK-293T; observed: pseudovirus infection; method: FDA-approved drug library screen; organism: VSV pseudotyped with SARS-CoV-2 spike; tested at: 10 µM; time: 16 h; reference: vehicle-treated
The GFP-positive cells of `N[C@H]1CON=C1O` is reported as 82.2%.
For `NCCCC[C@H](N[C@@H](CCc1ccccc1)C(=O)O)C(=O)N1CCC[C@H]1C(=O)O`, the GFP-positive cells was 94%.
`C[C@]12CCC(=O)C=C1[C@@H]1C[C@@H]1[C@H]1[C@@H]3[C@@H]4C[C@@H]4[C@@]4(CCC(=O)O4)[C@@]3(C)CC[C@@H]12` has a GFP-positive cells of 192%.
The GFP-positive cells of `C[N+](C)(C)CCCCCCCCCC[N+](C)(C)C` is reported as 100%.

Series 2 — observed: enzyme activity; action: inhibitor; tested at: 20 µM; setting: hit confirmation, no DTT
Target: Replicase polyprotein 1ab, main protease (rep, Severe acute respiratory syndrome coronavirus 2, UniProt P0DTD1)
`CC1=C(/C=C/C(C)=C/C=C/C(C)=C/C(=O)O)C(C)(C)CCC1` has an inhibition of 71.7%.
`N#CSc1cc(SC#N)c(N)nc1N` has an inhibition of 98.8%.
For `Oc1cc2c(cc1O)CN(C(=S)NCCc1ccc(Cl)cc1)CCC2`, the inhibition was 52.5%.

Series 3 — method: competition protein-binding microarray; molecule type: double-stranded DNA, one strand shown; sample: in vitro; tested at: 2 µM; together with: Pho4 competitor, 0.05 µM; direction: higher = stronger binding
Target: Centromere-binding protein 1, full length, His-tagged (CBF1, Saccharomyces cerevisiae, UniProt P17106, residues 1-351)
Sequence of UniProt P17106 (whole entry, looked up): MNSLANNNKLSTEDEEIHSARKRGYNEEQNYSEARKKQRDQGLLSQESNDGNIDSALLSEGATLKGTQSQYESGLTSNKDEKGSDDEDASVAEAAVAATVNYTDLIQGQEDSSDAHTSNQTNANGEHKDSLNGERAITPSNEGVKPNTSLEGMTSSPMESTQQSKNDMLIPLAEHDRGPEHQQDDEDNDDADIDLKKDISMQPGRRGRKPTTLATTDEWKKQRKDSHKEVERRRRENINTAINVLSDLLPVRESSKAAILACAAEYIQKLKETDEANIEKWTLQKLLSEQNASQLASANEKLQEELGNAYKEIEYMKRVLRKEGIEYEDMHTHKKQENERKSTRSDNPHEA
Setting: whole 60-bp probe, lowest competitor level
`CGCCCTTCCTTACGGTAGATGATGACACACTAAACGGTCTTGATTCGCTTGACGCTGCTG` has a fluorescence intensity of 60.8 a.u.
The fluorescence intensity of `CGGGGTTAAGTTTTTCACGTGAATTGCTTGCAGCAGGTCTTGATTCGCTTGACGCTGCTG` is reported as 628 a.u.
`CCAGGGGAGTAGTGAACCGTGCCAGCACCTCGGGTAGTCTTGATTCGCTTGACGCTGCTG` has a fluorescence intensity of 47.7 a.u.
`CATACCCAACCTTGGGCAGTGGGTGAAGATATTTGTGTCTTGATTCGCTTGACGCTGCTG` gave a fluorescence intensity of 61.1 a.u.
The fluorescence intensity of `CGGGGTTAAGTTTTGCACGTGTTTTGCTTGCAGCAGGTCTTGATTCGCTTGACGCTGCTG` is reported as 1390 a.u.
`AAGCGAGGCGCAGATCTCGTGGTGAGTGATATAGTGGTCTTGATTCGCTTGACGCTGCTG` has a fluorescence intensity of 138 a.u.
`TTGCGCTGCCCAATCCACGTGGAACAATCCTGTTCAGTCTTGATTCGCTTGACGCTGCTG` gave a fluorescence intensity of 440 a.u.
`AAGCATATGCTGTTTATCGTGCTAACAAGGCGGTATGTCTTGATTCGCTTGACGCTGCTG` has a fluorescence intensity of 73.5 a.u.

Series 4 — method: RNA Bind-n-Seq; molecule type: RNA; sample: in vitro; tested at: 365 nM; reference: no-protein control; direction: higher = stronger binding
Target: RNA binding protein fox-1 homolog 2, RRM domain, GST-SBP tag (RBFOX2, Homo sapiens, UniProt O43251-10, residues 100-194)
Setting: natural RNA segment, single round, ends assumed
Residues (chain): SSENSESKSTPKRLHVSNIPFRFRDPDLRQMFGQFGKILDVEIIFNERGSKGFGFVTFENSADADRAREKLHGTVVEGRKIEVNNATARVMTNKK
Under “RBNS enrichment (R)”, `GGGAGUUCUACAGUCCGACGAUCAAGAGUGAAUUUCUGUGGAUUUUACUGGUCCCAGCUUUAGGUUCUUUACGACACUAACAGGACUGCAUAGAGGCUUUUUCAGCAUUACUGUAUUGUCUCCGGCCACACUGUGGAAUUCUCGGGUGCCAA` is recorded as 0.275.
`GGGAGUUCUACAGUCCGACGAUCUGCAGUGGCUUCCCAUUUGCUCUGGGAACAGUGCCUCUGUGCUGGUUAUAUGUAUGCACCACAUGUGCACACACGGGUGUUGGUGCAACUCACCAGCAGGUGUGCAGUAGUGGAAUUCUCGGGUGCCAA` — result for “RBNS enrichment (R)”: 0.514.
For `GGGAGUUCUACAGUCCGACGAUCCUUGGUCUCUACGAUCUCCGUGCAAAAACCAUUAUCAAGUUCUCAGAUGAAUAUCUGACAAAGCAGUGGAGGUAUCCGAUUGAGCUUCAUGGCAUUGGUAAAUAUGGCAAUGGAAUUCUCGGGUGCCAA`, “RBNS enrichment (R)” read 0.311.
Under “RBNS enrichment (R)”, `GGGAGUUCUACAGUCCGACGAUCGCUAAGAGCACACAGAAUGGAUCUGACUGAGGGAGGAGACCACGGGAAAGCAAGGUUGCCUGGUAGCUCCAGCCCACAGUCCUCCCCUUCUGAAAGACCCACAGCGAUCUUGGAAUUCUCGGGUGCCAA` is recorded as 1.09.
`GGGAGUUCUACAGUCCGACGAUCUCUAACUUAUUUAUAAAAAGAUGAUCGCUGUAUUUUGAGUUUCAGCUGGAAACUUCUGUAAGGGGCAGCAGUUGAGGUGGGGUAGUGCCGCAGUGGGGUCAAGCUGAGCUUGGAAUUCUCGGGUGCCAA` — result for “RBNS enrichment (R)”: 1.03.
`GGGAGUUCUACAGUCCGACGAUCGAGAUAGGGGGCAGCCUUCAAUGGCAGCUCAUACUUCACCUUCCCCAGACUUGCACUGGGGUAGGAUAUGGAACGAUGGGGAGGUUUUUAAGGGCCGGGGAUGGAUCUUUUGGAAUUCUCGGGUGCCAA`: “RBNS enrichment (R)” 0.423.
`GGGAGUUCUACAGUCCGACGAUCUAUUUAUGUAGUAUUUCAAACAUUUCAAAAUGCUUUCAUCUAUGUUUAUCACAUUUUAAUACCACAGCACUUAUAAUGAUGUCACUACAUAUAGAAGCUCAAAGUUAAGGUGGAAUUCUCGGGUGCCAA`: “RBNS enrichment (R)” 0.399.
For `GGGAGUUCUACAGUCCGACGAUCCAGACUCGGGAACUGCCUGAAUGUGGUUUGGGACACGAGACCUCAUCAUAUUGAUGAGCGAACAAACAAGAACAUUUCCUCCCUCCCCUCCUUUGAAUUGAAAUGGCACAUGGAAUUCUCGGGUGCCAA`, “RBNS enrichment (R)” read 1.82.

Series 5 — observed: enzyme activity; action: inhibitor; tested at: 20 µM
Target: Replicase polyprotein 1ab, polymerase (rep, Severe acute respiratory syndrome coronavirus 2, UniProt P0DTD1)
With `O=C(Nc1cccnc1)c1cc(-c2ccnc(F)c2)ccc1OCc1ccccc1` the inhibition was -1.51%.
The inhibition of `CC[C@@H]1C(=O)N(C)c2cnc(Nc3ccc(C(=O)N[C@H]4CC[C@H](N5CCN(CC6CC6)CC5)CC4)cc3OC)nc2N1C(C)C` is reported as 8.67%.
`COc1ccc(NS(=O)(=O)c2ccc(I)cc2)cc1N1CCN(C)CC1` has an inhibition of -8.61%.
With `CNc1nc(NCc2ccc(NS(C)(=O)=O)cc2Cl)cc(-c2ccccn2)n1` the inhibition was 4.12%.
`NC[C@H](O)c1ccc(O)c(O)c1` gave an inhibition of 34%.
With `CN1CCN(c2ccc(Nc3ncc4cc(C#N)c(=O)n(C5CCCC5)c4n3)cc2)CC1` the inhibition was -1.93%.
For `Nc1ccn([C@H]2C[C@H](O)[C@@H](CO)O2)c(=O)n1`, the inhibition was -0.94%.
`Cc1ncc(CSSCc2cnc(C)c(O)c2CO)c(CO)c1O` gave an inhibition of -3.08%.
The inhibition of `COc1ccc2ccc(=O)oc2c1CC=C(C)C` is reported as -1.02%.
For `CC(C)(C)NCc1cc(Nc2ccnc3cc(Cl)ccc23)c2c(c1O)CCCC2`, the inhibition was 28%.
`CC(COc1ccccc1Cc1ccccc1)N1CCCCC1` (centres unmarked) has an inhibition of 93.3%.
With `O=C(O)[C@H](CC(=O)N1C[C@H]2CCCC[C@H]2C1)Cc1ccccc1` the inhibition was -1.16%.
The inhibition of `O=C(O)c1cccnc1Nc1cccc(C(F)(F)F)c1` is reported as 27.4%.
`O=C1CCC[C@@H]2[C@H]3CCCN4CCC[C@@H](CN12)[C@@H]34` gave an inhibition of -1.86%.
`Cc1cc(C)nc(NS(=O)(=O)c2ccc(NC(=S)NC(=O)COc3ccc(Br)cc3Cl)cc2)n1` gave an inhibition of 1.21%.
`COC(=O)N(C)c1c(N)nc(-c2nn(Cc3ccccc3F)c3ncccc23)nc1N` gave an inhibition of 0.09%.
For `C=C(C)[C@@H]1[C@H]2OC(=O)[C@@H]1[C@]1(O)C[C@H]3O[C@]34C(=O)O[C@H]2[C@]14C`, the inhibition was 1.75%.
With `Cc1cccn2c(=O)c(/C=C(\C#N)c3nc4ccccc4s3)c(Oc3ccc(F)cc3)nc12` the inhibition was 6.38%.
`CNC(=O)c1ccc(C)c(-n2c(C)cc(OCc3ccc(F)cc3F)c(Br)c2=O)c1` gave an inhibition of -0.01%.
For `Oc1ccc(C(O)CNCCCCCCNCC(O)c2ccc(O)c(O)c2)cc1O` (centres unmarked), the inhibition was -0.42%.

Mixed results — method: RNA Bind-n-Seq; molecule type: RNA; sample: in vitro; setting: 4-mer, random 30-nt RNA, single round; direction: higher = stronger binding
EIF4A1: Eukaryotic initiation factor 4A-I (EIF4A1, Homo sapiens, UniProt P60842, residues 1-406, full length assumed)
Sequence of UniProt P60842 (whole entry, looked up): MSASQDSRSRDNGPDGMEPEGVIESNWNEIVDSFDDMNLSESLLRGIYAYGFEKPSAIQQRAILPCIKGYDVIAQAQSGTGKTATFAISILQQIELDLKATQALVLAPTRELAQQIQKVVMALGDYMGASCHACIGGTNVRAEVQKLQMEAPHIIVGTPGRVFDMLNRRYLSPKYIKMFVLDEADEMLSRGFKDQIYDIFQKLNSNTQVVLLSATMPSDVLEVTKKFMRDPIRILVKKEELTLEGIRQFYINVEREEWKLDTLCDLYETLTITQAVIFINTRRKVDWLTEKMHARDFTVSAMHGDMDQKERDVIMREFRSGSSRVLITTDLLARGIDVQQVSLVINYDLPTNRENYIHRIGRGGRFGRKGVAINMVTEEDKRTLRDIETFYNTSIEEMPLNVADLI
DDX3X helicase core: ATP-dependent RNA helicase DDX3X, helicase core (DDX3X, Homo sapiens, UniProt O00571, residues 132-607)
Sequence of UniProt O00571 (132-607, looked up): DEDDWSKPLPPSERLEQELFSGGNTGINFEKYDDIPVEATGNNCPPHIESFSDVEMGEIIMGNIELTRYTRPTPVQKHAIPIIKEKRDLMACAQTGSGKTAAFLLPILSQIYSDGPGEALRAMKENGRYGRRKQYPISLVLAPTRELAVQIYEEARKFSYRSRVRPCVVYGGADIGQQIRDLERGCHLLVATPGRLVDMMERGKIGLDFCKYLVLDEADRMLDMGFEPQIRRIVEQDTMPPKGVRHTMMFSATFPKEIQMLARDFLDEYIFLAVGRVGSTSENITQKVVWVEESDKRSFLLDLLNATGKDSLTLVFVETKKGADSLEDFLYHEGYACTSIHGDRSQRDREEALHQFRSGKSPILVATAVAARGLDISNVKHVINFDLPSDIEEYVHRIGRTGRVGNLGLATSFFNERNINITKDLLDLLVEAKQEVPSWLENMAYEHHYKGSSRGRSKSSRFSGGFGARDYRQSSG
`CCUG` — result for “4-mer enrichment Z-score”: -0.603 (EIF4A1; 15 pmol, together with: 3 µM RocA, 2 mM AMP-PNP; reference: mean of 4-mers).
For `CUUC`, the 4-mer enrichment was 0.825 fold (DDX3X helicase core; 90 pmol, together with: 3 µM DMDA-PatA, 2 mM ADP, 2 mM phosphate; reference: input library).
For `GCAC`, “4-mer enrichment Z-score” read -0.893 (EIF4A1; 15 pmol, together with: 3 µM RocA, 2 mM AMP-PNP; reference: mean of 4-mers).
`CGGA` has a 4-mer enrichment of 0.937 fold (DDX3X helicase core; 90 pmol, together with: 3 µM DMDA-PatA, 2 mM ADP, 2 mM phosphate; reference: input library).

Some of these lines once more (series 5):
With `O=C(Nc1cccnc1)c1cc(-c2ccnc(F)c2)ccc1OCc1ccccc1` the inhibition was -1.51%.
The inhibition of `CC[C@@H]1C(=O)N(C)c2cnc(Nc3ccc(C(=O)N[C@H]4CC[C@H](N5CCN(CC6CC6)CC5)CC4)cc3OC)nc2N1C(C)C` is reported as 8.67%.
`COc1ccc(NS(=O)(=O)c2ccc(I)cc2)cc1N1CCN(C)CC1` has an inhibition of -8.61%.
With `CNc1nc(NCc2ccc(NS(C)(=O)=O)cc2Cl)cc(-c2ccccn2)n1` the inhibition was 4.12%.
`NC[C@H](O)c1ccc(O)c(O)c1` gave an inhibition of 34%.
With `CN1CCN(c2ccc(Nc3ncc4cc(C#N)c(=O)n(C5CCCC5)c4n3)cc2)CC1` the inhibition was -1.93%.
For `Nc1ccn([C@H]2C[C@H](O)[C@@H](CO)O2)c(=O)n1`, the inhibition was -0.94%.
